Experimental data collected from several papers.
Every numbered part comes from another study and shows a few of its results, in no order.
Sequence of UniProt P54756 (whole entry, looked up): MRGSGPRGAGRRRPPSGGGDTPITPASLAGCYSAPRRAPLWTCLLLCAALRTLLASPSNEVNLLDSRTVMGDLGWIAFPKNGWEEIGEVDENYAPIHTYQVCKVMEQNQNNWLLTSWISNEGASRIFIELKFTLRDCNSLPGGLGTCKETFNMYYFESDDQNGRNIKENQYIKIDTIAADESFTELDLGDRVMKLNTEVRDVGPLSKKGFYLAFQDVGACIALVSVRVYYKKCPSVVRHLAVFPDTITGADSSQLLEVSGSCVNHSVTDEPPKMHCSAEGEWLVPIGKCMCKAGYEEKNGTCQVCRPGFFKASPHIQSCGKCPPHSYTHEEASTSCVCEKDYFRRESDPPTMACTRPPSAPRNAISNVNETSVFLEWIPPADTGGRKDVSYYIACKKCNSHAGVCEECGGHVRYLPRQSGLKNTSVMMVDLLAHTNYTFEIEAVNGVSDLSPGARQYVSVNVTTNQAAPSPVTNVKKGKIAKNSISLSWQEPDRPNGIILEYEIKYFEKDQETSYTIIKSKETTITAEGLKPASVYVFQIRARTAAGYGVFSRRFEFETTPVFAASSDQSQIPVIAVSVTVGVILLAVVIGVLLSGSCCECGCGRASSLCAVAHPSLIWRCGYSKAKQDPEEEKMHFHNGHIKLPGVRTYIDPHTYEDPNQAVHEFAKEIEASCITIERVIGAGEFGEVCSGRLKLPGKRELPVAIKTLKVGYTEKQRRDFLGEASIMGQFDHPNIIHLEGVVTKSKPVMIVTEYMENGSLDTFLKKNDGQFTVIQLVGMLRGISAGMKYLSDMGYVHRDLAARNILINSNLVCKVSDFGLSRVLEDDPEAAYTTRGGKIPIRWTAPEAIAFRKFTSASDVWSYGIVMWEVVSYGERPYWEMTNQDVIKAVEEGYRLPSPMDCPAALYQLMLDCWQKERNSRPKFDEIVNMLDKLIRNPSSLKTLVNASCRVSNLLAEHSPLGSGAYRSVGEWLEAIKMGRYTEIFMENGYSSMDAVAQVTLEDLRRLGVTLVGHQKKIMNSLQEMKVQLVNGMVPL
Sequence of UniProt P18089 (whole entry, looked up): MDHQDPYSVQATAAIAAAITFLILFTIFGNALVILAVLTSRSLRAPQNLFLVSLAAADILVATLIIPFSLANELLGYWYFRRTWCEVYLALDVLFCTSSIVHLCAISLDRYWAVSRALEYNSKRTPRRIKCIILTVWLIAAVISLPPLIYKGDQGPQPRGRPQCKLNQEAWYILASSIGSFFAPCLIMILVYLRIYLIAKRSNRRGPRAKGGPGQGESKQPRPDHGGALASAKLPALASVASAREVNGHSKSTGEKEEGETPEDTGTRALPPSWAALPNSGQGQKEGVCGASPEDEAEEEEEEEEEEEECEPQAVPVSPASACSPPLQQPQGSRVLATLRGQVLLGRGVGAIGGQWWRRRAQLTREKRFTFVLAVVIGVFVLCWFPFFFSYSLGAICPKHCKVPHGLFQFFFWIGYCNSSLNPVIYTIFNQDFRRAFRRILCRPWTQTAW
Sequence of UniProt O15264 (whole entry, looked up): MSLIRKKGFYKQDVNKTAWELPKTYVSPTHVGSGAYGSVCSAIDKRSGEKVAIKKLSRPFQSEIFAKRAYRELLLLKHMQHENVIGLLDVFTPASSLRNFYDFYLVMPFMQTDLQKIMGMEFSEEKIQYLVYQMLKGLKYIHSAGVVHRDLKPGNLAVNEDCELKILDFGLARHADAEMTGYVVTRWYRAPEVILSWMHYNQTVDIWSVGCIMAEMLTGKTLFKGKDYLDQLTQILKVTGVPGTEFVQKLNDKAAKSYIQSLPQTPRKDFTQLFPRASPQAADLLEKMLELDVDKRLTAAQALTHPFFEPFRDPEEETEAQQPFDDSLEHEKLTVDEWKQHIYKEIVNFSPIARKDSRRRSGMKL

Block 1
SMILES: CC#CC(=O)Nc1cc2c(Nc3ccc(F)c(Cl)c3)ncnc2cn1
Effect on: enzyme activity
Action: inhibitor
Concentration: 0.5 µM
Baseline: control
target	remaining activity
Casein kinase II subunit alpha (CSNK2A1, Homo sapiens, UniProt P68400)	90.9%
Interleukin-1 receptor-associated kinase 4 (IRAK4, Homo sapiens, UniProt Q9NWZ3)	102%
Mast/stem cell growth factor receptor Kit (KIT, Homo sapiens, UniProt P10721)	98.5%
MAP kinase-interacting serine/threonine-protein kinase 2 (MKNK2, Homo sapiens, UniProt Q9HBH9)	66%
cGMP-dependent protein kinase 1 (PRKG1, Homo sapiens, UniProt Q13976)	97.6%
Protein kinase C delta type (PRKCD, Homo sapiens, UniProt Q05655)	99.8%
Serine/threonine-protein kinase Chk1 (CHEK1, Homo sapiens, UniProt O14757)	106%
Serine/threonine-protein kinase Nek4 (NEK4, Homo sapiens, UniProt P51957)	85.8%
Tyrosine-protein kinase BTK (BTK, Homo sapiens, UniProt Q06187)	2.88%
Cyclin-dependent kinase 9, with cyclin T1 (CDK9, Homo sapiens, UniProt P50750)	90.6%
Mitogen-activated protein kinase 12 (MAPK12, Homo sapiens, UniProt P53778)	99.4%
Ephrin type-A receptor 5 (EPHA5, Homo sapiens, UniProt P54756)	101%
Protein kinase C iota type (PRKCI, Homo sapiens, UniProt P41743)	96.6%
Mitogen-activated protein kinase 13 (MAPK13, Homo sapiens, UniProt O15264)	105%
Tyrosine-protein kinase Lyn (LYN, Homo sapiens, UniProt P07948)	88.3%
Mitogen-activated protein kinase kinase kinase 10 (MAP3K10, Homo sapiens, UniProt Q02779)	98.9%
Mitogen-activated protein kinase kinase kinase kinase 2 (MAP4K2, Homo sapiens, UniProt Q12851)	114%
Leucine-rich repeat serine/threonine-protein kinase 2 (LRRK2, Homo sapiens, UniProt Q5S007)	92.3%
Serine/threonine-protein kinase PLK2 (PLK2, Homo sapiens, UniProt Q9NYY3)	103%
Dual specificity mitogen-activated protein kinase kinase 6 (MAP2K6, Homo sapiens, UniProt P52564)	100%
RAC-gamma serine/threonine-protein kinase (AKT3, Homo sapiens, UniProt Q9Y243)	97.8%
Casein kinase I isoform alpha (CSNK1A1, Homo sapiens, UniProt P48729)	107%

Block 2
Structure (SMILES): COc1ccc2c(c1)O[C@@H](c1ccc(OC)c(OC)c1)C[C@H]2NC(=O)C1(c2ccc3c(c2)OC(F)(F)O3)CC1
Effect on: binding
Technique: radioligand binding
Concentration: 10 µM
target	inhibition [%]
Alpha-1B adrenergic receptor (ADRA1B, Homo sapiens, UniProt P35368)	5.97
Alpha-2C adrenergic receptor (ADRA2C, Homo sapiens, UniProt P18825)	10.1
Muscarinic acetylcholine receptor M2 (CHRM2, Homo sapiens, UniProt P08172)	-13.4
Muscarinic acetylcholine receptor M4 (CHRM4, Homo sapiens, UniProt P08173)	0.59
Beta-3 adrenergic receptor (ADRB3, Homo sapiens, UniProt P13945)	-7.53
Histamine H1 receptor (HRH1, Homo sapiens, UniProt P35367)	49.9
Alpha-1D adrenergic receptor (ADRA1D, Homo sapiens, UniProt P25100)	0.16
Histamine H2 receptor (HRH2, Homo sapiens, UniProt P25021)	-0.89
D(1A) dopamine receptor (DRD1, Homo sapiens, UniProt P21728)	35.1
Alpha-2B adrenergic receptor (ADRA2B, Homo sapiens, UniProt P18089)	19.6
Histamine H4 receptor (HRH4, Homo sapiens, UniProt Q9H3N8)	6.21

Block 3
Target: DNA polymerase theta, helicase domain (POLQ, Homo sapiens, UniProt O75417)
Sequence of UniProt O75417 (whole entry, looked up): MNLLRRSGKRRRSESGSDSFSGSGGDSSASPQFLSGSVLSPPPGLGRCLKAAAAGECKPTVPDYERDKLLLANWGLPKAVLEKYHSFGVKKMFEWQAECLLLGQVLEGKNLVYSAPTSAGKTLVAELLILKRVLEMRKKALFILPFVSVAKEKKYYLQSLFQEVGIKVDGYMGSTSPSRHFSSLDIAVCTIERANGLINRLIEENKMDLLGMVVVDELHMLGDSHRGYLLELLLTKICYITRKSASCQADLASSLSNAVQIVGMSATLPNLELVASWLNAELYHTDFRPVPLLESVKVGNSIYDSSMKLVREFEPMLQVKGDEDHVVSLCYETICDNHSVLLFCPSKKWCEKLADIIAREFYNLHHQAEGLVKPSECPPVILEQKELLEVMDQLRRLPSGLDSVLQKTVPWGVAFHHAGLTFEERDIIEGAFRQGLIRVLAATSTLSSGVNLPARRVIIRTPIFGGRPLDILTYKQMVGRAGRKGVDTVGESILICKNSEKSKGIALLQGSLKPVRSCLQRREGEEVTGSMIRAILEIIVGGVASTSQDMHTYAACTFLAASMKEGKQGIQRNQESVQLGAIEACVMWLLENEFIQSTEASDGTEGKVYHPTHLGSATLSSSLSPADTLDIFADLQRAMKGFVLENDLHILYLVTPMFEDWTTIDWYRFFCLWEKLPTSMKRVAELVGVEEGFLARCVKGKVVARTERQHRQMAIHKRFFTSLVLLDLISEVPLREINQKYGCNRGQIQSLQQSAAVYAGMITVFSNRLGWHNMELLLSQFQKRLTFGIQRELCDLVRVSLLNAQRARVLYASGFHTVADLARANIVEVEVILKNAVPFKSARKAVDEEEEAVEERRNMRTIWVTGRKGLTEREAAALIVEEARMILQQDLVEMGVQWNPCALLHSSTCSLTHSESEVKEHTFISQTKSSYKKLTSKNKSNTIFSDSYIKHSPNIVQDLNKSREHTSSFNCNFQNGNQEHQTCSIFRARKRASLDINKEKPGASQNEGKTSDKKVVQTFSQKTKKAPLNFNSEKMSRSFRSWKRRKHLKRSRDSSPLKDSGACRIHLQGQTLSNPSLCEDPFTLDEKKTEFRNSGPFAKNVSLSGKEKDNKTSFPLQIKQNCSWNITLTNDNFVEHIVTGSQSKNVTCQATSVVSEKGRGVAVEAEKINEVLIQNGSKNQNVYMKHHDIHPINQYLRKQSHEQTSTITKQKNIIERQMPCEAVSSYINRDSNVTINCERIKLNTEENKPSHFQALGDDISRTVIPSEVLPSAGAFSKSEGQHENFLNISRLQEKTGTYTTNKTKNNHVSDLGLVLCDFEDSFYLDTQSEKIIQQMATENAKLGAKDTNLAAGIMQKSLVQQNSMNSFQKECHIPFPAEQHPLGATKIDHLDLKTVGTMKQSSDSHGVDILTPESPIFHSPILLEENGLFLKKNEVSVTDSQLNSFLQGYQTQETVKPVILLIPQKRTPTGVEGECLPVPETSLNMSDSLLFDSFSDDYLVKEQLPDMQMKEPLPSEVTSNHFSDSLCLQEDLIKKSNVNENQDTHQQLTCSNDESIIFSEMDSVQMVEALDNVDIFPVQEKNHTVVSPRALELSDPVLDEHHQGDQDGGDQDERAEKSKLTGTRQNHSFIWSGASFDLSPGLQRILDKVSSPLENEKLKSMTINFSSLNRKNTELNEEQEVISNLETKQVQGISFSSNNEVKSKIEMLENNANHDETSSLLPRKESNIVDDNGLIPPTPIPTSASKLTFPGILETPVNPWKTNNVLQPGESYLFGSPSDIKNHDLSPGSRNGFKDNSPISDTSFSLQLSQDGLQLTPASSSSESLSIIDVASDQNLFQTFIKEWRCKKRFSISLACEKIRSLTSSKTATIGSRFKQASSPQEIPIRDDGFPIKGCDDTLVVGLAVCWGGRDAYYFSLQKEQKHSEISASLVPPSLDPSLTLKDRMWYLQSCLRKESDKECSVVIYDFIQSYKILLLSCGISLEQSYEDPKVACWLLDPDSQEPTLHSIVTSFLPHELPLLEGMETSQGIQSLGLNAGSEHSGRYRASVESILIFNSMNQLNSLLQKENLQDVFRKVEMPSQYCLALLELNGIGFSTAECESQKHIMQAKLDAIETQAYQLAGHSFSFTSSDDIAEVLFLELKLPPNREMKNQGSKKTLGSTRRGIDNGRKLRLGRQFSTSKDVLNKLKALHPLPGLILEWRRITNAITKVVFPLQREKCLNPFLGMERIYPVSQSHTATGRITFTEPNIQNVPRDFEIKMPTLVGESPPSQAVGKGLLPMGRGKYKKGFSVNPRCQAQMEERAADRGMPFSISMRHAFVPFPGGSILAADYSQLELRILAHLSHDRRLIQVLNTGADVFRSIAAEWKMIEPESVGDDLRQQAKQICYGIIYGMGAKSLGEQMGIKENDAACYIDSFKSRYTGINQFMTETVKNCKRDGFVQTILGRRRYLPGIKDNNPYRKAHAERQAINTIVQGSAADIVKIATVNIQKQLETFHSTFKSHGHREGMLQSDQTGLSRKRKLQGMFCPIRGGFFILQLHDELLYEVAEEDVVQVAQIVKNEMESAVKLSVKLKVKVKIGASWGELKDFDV
Effect on: enzyme activity
Concentration: concentration not given
Setting: without ssDNA
SMILES	remaining activity
CCCCCCCCCCC/C=C\C(C)(C)/C=C\CCCC(=O)O	101%
COc1cccc2c1C(=O)c1c(O)c3c(c(O)c1C2=O)C[C@@](O)(C(=O)CO)C[C@@H]3O[C@H]1C[C@H](N)[C@H](O)[C@H](C)O1	96.2%
CCCCCCCC/C=C\CCCCCCCC(=O)O	98.6%
O=c1[nH]c2cc(Cl)ccc2c(O)c1-c1cccc(Oc2ccccc2)c1	66.1%
Cc1ccc(C(=O)c2cc(O)c(O)c([N+](=O)[O-])c2)cc1	42.4%
Cc1ccc(-c2n[nH]c3c2C(c2ccccc2Cl)N(c2ccc(C(=O)O)cc2)C3=O)cc1 (stereo not drawn)	84.6%
CC(=O)Oc1ccccc1C(=O)Nc1ncc([N+](=O)[O-])s1	51.2%
O=C(CSc1ncc(S(=O)(=O)c2ccc(Br)cc2)c(=O)[nH]1)NCc1ccc(Cl)cc1	68.2%
CC[N+](C)(CC)CCC[n+]1c(-c2ccccc2)c2cc(N)ccc2c2ccc(N)cc21	110%

Block 4
Target: Calcium/calmodulin-dependent protein kinase type II subunit alpha (CAMK2A, Homo sapiens, UniProt Q9UQM7)
Sequence of UniProt Q9UQM7 (whole entry, looked up): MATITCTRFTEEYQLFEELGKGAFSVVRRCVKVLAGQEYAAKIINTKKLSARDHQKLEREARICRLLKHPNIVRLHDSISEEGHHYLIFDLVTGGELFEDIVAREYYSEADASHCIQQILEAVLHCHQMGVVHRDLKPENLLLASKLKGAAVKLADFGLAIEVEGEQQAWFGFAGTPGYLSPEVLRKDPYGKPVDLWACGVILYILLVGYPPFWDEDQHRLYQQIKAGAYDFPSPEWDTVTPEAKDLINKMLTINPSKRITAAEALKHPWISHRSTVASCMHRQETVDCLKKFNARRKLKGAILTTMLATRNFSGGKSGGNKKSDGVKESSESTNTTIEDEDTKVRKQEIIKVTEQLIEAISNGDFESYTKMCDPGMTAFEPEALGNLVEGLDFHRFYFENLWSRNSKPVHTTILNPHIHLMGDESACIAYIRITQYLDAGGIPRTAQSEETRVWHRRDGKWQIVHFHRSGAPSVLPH
Effect on: enzyme activity
Action: inhibitor
Concentration: 10 µM
Compound	inhibition
O=c1cc(-c2ccccc2)oc2cc(O)cc(O[C@@H]3O[C@H](CO)[C@@H](O)[C@H](O)[C@H]3O)c12	13%
CC(C)(O[C@@H]1O[C@H](CO)[C@@H](O)[C@H](O)[C@H]1O)[C@@H]1CC[C@](C)([C@H]2[C@@H](O)C[C@@]3(C)[C@@H]4C[C@H](O)[C@H]5C(C)(C)[C@@H](O[C@@H]6OC[C@@H](O)[C@H](O)[C@H]6O)CC[C@@]56C[C@@]46CC[C@]23C)O1	7%
C[C@H]1O[C@@H](O[C@H]2CC[C@@]3(C)[C@@H](CC[C@]4(C)[C@@H]3C=C[C@]35OC[C@@]6(CCC(C)(C)C[C@H]63)[C@@H](O)C[C@]54C)[C@]2(C)CO)[C@H](O)[C@@H](O[C@@H]2O[C@H](CO)[C@@H](O)[C@H](O)[C@H]2O)[C@H]1O	-15%
CC(=O)OCC(=O)[C@@]1(O)CC[C@H]2[C@@H]3CCC4=CC(=O)CC[C@]4(C)[C@H]3[C@@H](O)C[C@@]21C	-3%
CCCCCC1C(=O)CCC1CC(=O)OC (stereo not drawn)	29%
CC(C)(O)[C@H]1Cc2cc3cc(-c4cc(O)cc(O)c4)oc3cc2O1	-11%
COc1ccc(-c2cc(=O)c3c(O)cc(O[C@@H]4O[C@H](CO[C@@H]5O[C@@H](C)[C@H](O)[C@@H](O)[C@H]5O)[C@@H](O)[C@H](O)[C@H]4O)cc3o2)cc1O	15%
CC(O)Cn1cnc2c1c(=O)n(C)c(=O)n2C (stereo not drawn)	7%
CC1(C)CCC[C@]2(C)[C@H]3CCO[C@]3(C)CC[C@@H]12	-3%
c1ccc(-c2ccc(C(c3ccccc3)n3ccnc3)cc2)cc1 (stereo not drawn)	0%
CCOc1ccc(Nc2ccc(/C(=C3C=C/C(=[N+](/CC)Cc4cccc(S(=O)(=O)[O-])c4)C=C/3C)c3ccc(N(CC)Cc4cccc(S(=O)(=O)O)c4)cc3C)cc2)cc1	13%
O=C1C=CN(c2c(F)cc(N3C[C@H](CNc4ccon4)OC3=O)c(F)c2F)CC1	3%
O=C(O[C@H](Cc1ccc(O)c(O)c1)C(=O)O)C1=Cc2cc(O)c(O)cc2[C@H](c2ccc(O)c(O)c2)[C@H]1C(=O)OC(Cc1ccc(O)c(O)c1)C(=O)O (stereo in doubt)	-8%
C/C=C(/C)C(=O)O[C@H]1c2cc(OC)c(OC)c(OC)c2-c2c(cc3c(c2OC)OCO3)C[C@H](C)[C@]1(C)O	18%
O=C(N[C@@H](c1ccccc1)[C@@H](O)C(=O)O)c1ccccc1	5%
CC1(C)CC[C@]2(C(=O)O)CC[C@]3(C)C(=CC[C@@H]4[C@@]5(C)CC[C@H](O[C@@H]6O[C@H](C(=O)O)[C@@H](O)[C@H](O[C@@H]7OC[C@@H](O)[C@H](O)[C@H]7O)[C@H]6O)C(C)(C)[C@@H]5CC[C@]43C)[C@@H]2C1	-3%
C=C1C(=O)O[C@@H]2/C=C(/C)C[C@H]3C=C(C[C@H](OC(=O)/C(C)=C\C)[C@@H]12)C(=O)O3	12%
C/C=C(/C)C(=O)O[C@H]1C(C)=C[C@]23C(=O)[C@@H](C=C(CO)[C@@H](O)[C@]12O)[C@H]1[C@@H](C[C@H]3C)C1(C)C	1%

Excerpt of the above (block 3):
SMILES	remaining activity
CCCCCCCCCCC/C=C\C(C)(C)/C=C\CCCC(=O)O	101%
COc1cccc2c1C(=O)c1c(O)c3c(c(O)c1C2=O)C[C@@](O)(C(=O)CO)C[C@@H]3O[C@H]1C[C@H](N)[C@H](O)[C@H](C)O1	96.2%
CCCCCCCC/C=C\CCCCCCCC(=O)O	98.6%
O=c1[nH]c2cc(Cl)ccc2c(O)c1-c1cccc(Oc2ccccc2)c1	66.1%
